Measurements collected from several papers.
Parts stem from different laboratories: compare values within a part only. Several values in a cell are separate wells, animals, samples, runs or records.
Chain of UniProt P30530 (whole entry, looked up): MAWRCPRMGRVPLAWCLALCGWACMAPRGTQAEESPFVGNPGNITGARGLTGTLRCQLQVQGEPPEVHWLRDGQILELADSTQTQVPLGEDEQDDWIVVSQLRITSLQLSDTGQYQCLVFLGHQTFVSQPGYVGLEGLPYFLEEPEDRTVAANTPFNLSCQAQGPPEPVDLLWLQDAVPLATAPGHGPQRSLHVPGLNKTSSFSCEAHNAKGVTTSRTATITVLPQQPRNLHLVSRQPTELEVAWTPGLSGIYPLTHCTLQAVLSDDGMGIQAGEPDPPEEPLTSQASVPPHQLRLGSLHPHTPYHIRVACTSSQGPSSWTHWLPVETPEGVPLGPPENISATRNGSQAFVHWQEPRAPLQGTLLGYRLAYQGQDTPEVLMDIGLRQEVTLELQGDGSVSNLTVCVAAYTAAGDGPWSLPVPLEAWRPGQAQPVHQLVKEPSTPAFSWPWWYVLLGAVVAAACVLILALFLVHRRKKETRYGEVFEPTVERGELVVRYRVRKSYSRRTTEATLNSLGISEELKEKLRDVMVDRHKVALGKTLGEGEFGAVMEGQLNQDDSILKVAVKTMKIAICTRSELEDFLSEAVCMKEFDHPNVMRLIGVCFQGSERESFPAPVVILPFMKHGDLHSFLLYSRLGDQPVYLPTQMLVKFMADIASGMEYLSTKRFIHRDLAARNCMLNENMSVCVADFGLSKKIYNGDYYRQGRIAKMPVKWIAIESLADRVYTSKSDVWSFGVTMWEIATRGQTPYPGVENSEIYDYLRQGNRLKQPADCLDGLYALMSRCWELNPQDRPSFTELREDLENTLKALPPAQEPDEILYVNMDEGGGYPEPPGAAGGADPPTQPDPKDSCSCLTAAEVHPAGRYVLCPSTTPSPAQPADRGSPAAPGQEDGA
Chain of UniProt P49336 (whole entry, looked up): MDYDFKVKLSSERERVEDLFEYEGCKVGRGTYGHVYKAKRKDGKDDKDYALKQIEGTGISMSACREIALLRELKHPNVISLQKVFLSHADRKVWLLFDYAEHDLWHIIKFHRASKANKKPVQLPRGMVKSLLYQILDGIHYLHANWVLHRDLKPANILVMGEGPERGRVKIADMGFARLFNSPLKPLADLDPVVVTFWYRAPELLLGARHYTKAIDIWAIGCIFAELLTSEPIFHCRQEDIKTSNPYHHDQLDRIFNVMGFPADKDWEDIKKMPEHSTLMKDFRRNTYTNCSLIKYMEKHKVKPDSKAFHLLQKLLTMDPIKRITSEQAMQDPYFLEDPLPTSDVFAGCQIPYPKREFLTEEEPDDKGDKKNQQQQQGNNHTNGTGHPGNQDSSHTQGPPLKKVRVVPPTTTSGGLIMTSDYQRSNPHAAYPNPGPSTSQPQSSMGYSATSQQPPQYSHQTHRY
Chain of UniProt Q9UQB9 (whole entry, looked up): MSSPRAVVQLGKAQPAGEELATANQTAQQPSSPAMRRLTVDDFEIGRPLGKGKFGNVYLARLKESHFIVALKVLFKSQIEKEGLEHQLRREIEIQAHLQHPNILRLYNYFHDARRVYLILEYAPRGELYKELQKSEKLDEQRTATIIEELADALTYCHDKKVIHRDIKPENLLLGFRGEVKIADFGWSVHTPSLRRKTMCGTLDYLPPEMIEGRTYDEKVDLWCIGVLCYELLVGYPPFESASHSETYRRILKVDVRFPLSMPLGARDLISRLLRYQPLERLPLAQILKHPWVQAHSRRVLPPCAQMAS

Series 1
SMILES: O=C(NC[C@@H]1[C@H]2CN(C(=O)OCc3cc(C(F)(F)F)cc(C(F)(F)F)c3)C[C@@H]12)c1ccc2[nH]nnc2c1
Effect on: cell-free assay
Technique: competition with immobilised ligand
Concentration: 1 µM
| target | remaining binding [%] |
| --- | --- |
| MARK3 (Homo sapiens, UniProt P27448) | 100 |
| TAOK2 (Homo sapiens, UniProt Q9UL54) | 86 |
| MAST1 (Homo sapiens, UniProt Q9Y2H9) | 100 |
| MTOR (Homo sapiens, UniProt P42345) | 100 |
| Non-receptor tyrosine-protein kinase TYK2, JH2 (TYK2, Homo sapiens, UniProt P29597) | 100 |
| CAMKK1 (Homo sapiens, UniProt Q8N5S9) | 91 |
| PIK3CA (Homo sapiens, UniProt P42336) | 74 |
| SIK3 (Homo sapiens, UniProt Q9Y2K2) | 79 |
| CDK8 (Homo sapiens, UniProt P49336) | 100 |
| IRAK4 (Homo sapiens, UniProt Q9NWZ3) | 100 |
| NEK9 (Homo sapiens, UniProt Q8TD19) | 77 |
| TGFBR2 (Homo sapiens, UniProt P37173) | 100 |
| Myosin-IIIb (MYO3B, Homo sapiens, UniProt Q8WXR4) | 100 |
| FGFR3 (Homo sapiens, UniProt P22607, G697C) | 92 |
| MAPK7 (Homo sapiens, UniProt Q13164) | 100 |
| PRKCH (Homo sapiens, UniProt P24723) | 100 |
| NIM1K (Homo sapiens, UniProt Q8IY84) | 100 |
| RET (Homo sapiens, UniProt P07949) | 100 |
| MAP2K5 (Homo sapiens, UniProt Q13163) | 100 |
| ERBB2 (Homo sapiens, UniProt P04626) | 100 |
| AXL (Homo sapiens, UniProt P30530) | 87 |

Series 2
Target: Mitogen-activated protein kinase kinase kinase kinase 5 (MAP4K5, Homo sapiens, UniProt Q9Y4K4)
Chain of UniProt Q9Y4K4 (whole entry, looked up): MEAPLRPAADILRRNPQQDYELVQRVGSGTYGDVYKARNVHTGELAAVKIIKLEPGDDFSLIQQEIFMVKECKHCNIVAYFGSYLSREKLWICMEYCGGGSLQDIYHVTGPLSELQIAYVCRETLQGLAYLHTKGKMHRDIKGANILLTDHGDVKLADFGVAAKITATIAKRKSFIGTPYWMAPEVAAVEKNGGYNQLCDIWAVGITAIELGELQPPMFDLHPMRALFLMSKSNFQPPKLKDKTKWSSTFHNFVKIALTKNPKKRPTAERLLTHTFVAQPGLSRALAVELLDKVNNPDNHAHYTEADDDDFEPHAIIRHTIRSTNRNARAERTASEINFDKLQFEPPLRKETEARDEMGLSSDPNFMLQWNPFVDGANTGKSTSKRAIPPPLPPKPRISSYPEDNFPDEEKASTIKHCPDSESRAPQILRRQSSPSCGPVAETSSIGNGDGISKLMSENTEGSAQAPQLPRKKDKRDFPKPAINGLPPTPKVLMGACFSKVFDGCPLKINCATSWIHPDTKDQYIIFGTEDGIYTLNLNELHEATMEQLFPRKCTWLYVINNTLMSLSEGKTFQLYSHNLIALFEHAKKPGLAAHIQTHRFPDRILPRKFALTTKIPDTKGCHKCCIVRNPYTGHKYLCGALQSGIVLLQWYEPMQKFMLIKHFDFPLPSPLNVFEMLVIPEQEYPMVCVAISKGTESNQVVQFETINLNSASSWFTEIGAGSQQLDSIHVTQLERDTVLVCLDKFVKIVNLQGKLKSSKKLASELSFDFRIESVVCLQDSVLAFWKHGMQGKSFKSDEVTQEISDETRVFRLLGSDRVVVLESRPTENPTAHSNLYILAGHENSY
Effect on: enzyme activity
Action: inhibitor
Concentration: 0.5 µM
Baseline: control
| SMILES | remaining activity |
| --- | --- |
| NC(=O)c1cccc(-c2cc(Nc3ccc(OC(F)(F)F)cc3)ncn2)c1 | 97.8% |
| FC(F)(F)c1ccc(/C=C/c2nc(COc3ccc(CCCCn4ccnn4)cc3)co2)cc1 | 96.5% |
| CCN(CC)CCCCN1c2ccccc2Oc2ccc(Cl)cc21 | 93.4% |
| c1cc(-c2cnn3cc(-c4ccc(OCCN5CCCCC5)cc4)cnc23)ccn1 | 7.24% |
| CNc1cc2c(Nc3cccc(Br)c3)ncnc2cn1 | 77.1% |
| NC(=O)c1ccc(-c2nc(-c3ccc4c(c3)OCCO4)c(-c3ccccn3)[nH]2)cc1 | 95.1% |
| CC(C)n1cnc2c(Nc3cccc(Cl)c3)nc(NCCO)nc21 | 81.5% |
| O=Nc1c(-c2c(O)[nH]c3ccccc23)[nH]c2ccccc12 | 37.8% |
| O=C1c2ccccc2-c2nc3nnnn3nc21 | 78.7% |
| CCCCc1c(-c2ccc(O)cc2)[nH]c2nccnc12 | 65.3% |
| O=C1NC(=O)/C(=C/c2ccc3c(c2)OC(F)(F)O3)S1 | 88.1% |
| N#CC(c1ccnc(NCCc2cccnc2)n1)c1nc2ccccc2s1 (stereo not drawn) | 87.5% |
| N#C/C(=C(/N)SC1C=CC=CC1)c1cccc(C(O)c2ccncc2)c1 (stereo not drawn) | 94.8% |
| COc1cc2c(N3CCN(C(=O)Nc4ccc(OC(C)C)cc4)CC3)ncnc2cc1OCCCN1CCCCC1 | 87.6% |
| COc1cc2c(Nc3ccc(Br)cc3F)ncnc2cc1OCC1CCN(C)CC1 | 37.1% |
| O=C(O)/C=C/c1cc(Br)c(Br)c(Br)c1Br | 80.3% |
| CC(C)N(CCC(=O)c1ccc2ccccc2c1)Cc1ccccc1 | 90.2% |
| CC(C)(C)c1nc2c3cc[nH]c(=O)c3c3cc(F)ccc3c2[nH]1 | 65.8% |
| O=C(c1ccccc1)c1ccc(N2CCOCC2)cc1O | 100% |
| O=c1c(-c2ccc(F)cc2)c(-c2ccncc2)[nH]n1-c1ccc(Cl)cc1 | 83.1% |
| Nc1nc(Nc2ccc(S(N)(=O)=O)cc2)nn1C(=S)Nc1c(F)cccc1F | 1.71% |

Series 3
Target: DNA polymerase theta, ATPase domain (POLQ, Homo sapiens, UniProt O75417)
Chain of UniProt O75417 (whole entry, unmodified, looked up): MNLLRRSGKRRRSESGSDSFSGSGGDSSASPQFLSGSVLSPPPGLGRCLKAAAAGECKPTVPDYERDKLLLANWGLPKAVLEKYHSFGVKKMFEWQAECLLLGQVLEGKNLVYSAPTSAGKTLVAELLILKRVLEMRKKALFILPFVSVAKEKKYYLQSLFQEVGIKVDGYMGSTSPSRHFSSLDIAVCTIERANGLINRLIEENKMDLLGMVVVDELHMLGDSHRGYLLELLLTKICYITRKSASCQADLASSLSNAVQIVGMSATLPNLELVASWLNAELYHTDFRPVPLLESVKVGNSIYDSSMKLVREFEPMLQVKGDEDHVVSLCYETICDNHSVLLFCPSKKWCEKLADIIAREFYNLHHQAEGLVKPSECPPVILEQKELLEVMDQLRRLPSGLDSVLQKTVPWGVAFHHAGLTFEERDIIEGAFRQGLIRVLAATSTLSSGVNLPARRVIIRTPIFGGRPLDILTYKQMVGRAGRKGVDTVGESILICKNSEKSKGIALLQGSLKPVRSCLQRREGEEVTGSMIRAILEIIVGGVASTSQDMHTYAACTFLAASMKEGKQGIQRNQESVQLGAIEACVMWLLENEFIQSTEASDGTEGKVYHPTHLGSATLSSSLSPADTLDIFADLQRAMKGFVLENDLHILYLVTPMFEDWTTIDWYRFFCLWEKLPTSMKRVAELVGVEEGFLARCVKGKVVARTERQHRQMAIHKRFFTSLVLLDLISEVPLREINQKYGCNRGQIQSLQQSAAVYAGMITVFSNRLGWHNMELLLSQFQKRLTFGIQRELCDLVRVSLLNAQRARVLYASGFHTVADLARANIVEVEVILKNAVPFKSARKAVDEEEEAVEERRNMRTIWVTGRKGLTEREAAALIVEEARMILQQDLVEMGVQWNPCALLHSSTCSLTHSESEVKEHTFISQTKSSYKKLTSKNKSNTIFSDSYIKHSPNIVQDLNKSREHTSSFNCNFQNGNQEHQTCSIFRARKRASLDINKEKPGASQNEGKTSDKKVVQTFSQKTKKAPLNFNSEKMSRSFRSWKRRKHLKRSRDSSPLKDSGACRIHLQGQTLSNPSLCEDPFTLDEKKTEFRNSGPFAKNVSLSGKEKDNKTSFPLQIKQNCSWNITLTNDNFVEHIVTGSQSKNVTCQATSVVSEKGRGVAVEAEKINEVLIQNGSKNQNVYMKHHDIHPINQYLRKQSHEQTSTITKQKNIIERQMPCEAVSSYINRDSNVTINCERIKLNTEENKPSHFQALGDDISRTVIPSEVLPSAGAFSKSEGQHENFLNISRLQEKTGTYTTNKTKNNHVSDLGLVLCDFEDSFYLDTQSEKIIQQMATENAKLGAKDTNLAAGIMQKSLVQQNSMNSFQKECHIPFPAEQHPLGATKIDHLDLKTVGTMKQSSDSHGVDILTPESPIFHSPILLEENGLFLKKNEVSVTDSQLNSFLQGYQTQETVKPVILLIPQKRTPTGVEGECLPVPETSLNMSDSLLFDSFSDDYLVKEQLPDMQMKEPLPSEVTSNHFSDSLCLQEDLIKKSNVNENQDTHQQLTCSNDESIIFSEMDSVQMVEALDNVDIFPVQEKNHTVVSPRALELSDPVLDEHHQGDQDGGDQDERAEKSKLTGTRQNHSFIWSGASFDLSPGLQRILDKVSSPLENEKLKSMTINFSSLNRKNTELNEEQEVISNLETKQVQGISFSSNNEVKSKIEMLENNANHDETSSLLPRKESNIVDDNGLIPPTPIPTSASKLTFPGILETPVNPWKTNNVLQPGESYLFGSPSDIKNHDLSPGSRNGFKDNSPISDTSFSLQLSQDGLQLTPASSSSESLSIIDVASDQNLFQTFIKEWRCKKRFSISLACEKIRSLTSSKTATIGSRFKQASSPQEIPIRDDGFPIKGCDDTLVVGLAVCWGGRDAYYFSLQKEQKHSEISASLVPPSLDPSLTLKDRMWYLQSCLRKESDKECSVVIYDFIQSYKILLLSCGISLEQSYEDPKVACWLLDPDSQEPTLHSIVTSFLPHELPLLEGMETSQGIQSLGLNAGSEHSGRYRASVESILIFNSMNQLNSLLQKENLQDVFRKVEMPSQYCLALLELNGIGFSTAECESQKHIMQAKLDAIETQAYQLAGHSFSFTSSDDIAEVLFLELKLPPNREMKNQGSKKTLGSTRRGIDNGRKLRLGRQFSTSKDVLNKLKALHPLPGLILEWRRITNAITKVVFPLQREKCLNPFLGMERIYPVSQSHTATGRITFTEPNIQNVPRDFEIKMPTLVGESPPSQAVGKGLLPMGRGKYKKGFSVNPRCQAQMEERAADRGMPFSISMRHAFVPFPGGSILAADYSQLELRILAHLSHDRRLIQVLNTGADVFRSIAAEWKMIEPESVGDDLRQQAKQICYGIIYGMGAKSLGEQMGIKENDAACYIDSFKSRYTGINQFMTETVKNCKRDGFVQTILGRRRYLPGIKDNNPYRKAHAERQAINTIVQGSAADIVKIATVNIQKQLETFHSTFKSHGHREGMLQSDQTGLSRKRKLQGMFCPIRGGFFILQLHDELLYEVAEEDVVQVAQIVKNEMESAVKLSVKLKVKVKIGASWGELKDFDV
Effect on: enzyme activity
Action: inhibitor
Concentration: 77 µM
Baseline: untreated
| Structure (SMILES) | remaining activity |
| --- | --- |
| CC[C@H]1OC(=O)[C@H](C)[C@@H](O[C@H]2C[C@@](C)(OC)[C@@H](O)[C@H](C)O2)[C@H](C)[C@@H](O[C@@H]2O[C@H](C)C[C@H](N(C)C)[C@H]2O)[C@](C)(OC)C[C@@H](C)C(=O)[C@H](C)[C@@H](O)[C@]1(C)O | 103% |
| COC(=O)Nc1nc2ccc(SC(C)C)cc2[nH]1 | 100% |
| O=C1C(C2=C3c4ccccc4NC3/C(=C\c3ccc(O)cc3)C2=O)=C2C(=Nc3ccccc32)/C1=C\c1ccc(O)cc1 (stereo not drawn) | 83.8% |
| O=c1cc[nH]c(=O)[nH]1 | 91.6% |
| C=C[C@](C)(O)CC[C@@H]1[C@@]2(C)CCCC(C)(C)[C@@H]2CC[C@@]1(C)O | 94.8% |
| O=C(CCCN1CCC(O)(c2cccc(C(F)(F)F)c2)CC1)c1ccc(F)cc1 | 103% |
| CC(=O)OCC(=O)[C@@]1(OC(C)=O)[C@@H](C)C[C@H]2[C@@H]3C[C@H](F)C4=CC(=O)C=C[C@]4(C)[C@@]3(F)[C@@H](O)C[C@@]21C | 103% |
| CCCCOC(=O)c1ccc(O)cc1 | 109% |
| C[C@@H]1CN(CC(=O)Nc2ccc3c(c2)Cc2cccc(-c4cc(=O)cc(N5CCOCC5)o4)c2S3)C[C@H](C)O1 | 92.5% |
| CCC[C@H](Nc1nc(-c2ccc(NC(=O)NCC)c(OC)c2)ncc1C)c1cccnc1 | 92% |
| O=C1OC(=O)[C@H]2[C@@H]1[C@H]1CC[C@H]2O1 | 97.3% |
| NC(=O)N1c2ccccc2C=Cc2ccccc21 | 101% and 94.2% |
| CC(C)NC(=N)NC(=N)Nc1ccc(Cl)cc1 | 105% |
| C[n+]1ccccc1/C=N/O | 101% |
| CCC(C)N(C)C(=O)c1cc2ccccc2c(-c2ccccc2Cl)n1 (stereo not drawn) | 101% |
| Nc1n[nH]c(N)c1N=Nc1ccc(O)cc1 | 103% |

Series 4
Compound: O=C(Nc1ccccc1)Nc1cccc(Oc2ccc3nccn3n2)c1
Concentration: 1 µM
| target | test | setting | scale | remaining binding [%] |
| --- | --- | --- | --- | --- |
| MAP2K7 (Homo sapiens, UniProt O14733) | competitive binding panel, item: MKK7 | – | baseline: vehicle | 100 |
| CAMK2B (Homo sapiens, UniProt Q13554) | competitive binding panel | – | baseline: vehicle | 100 |
| RPS6KA5 (Homo sapiens, UniProt O75582) | competitive binding scan | N-terminal kinase domain 1 | – | 100 |
| CAMKK2 (Homo sapiens, UniProt Q96RR4) | competitive binding panel | – | baseline: vehicle | 100 |
| MAP3K9 (Homo sapiens, UniProt P80192) | competitive binding panel, item: MLK1 | – | baseline: vehicle | 100 |
| CHEK1 (Homo sapiens, UniProt O14757) | competitive binding panel | – | baseline: vehicle | 100 |
| WNK1 (Homo sapiens, UniProt Q9H4A3) | competitive binding panel | – | baseline: vehicle | 100 |
| CSNK1E (Homo sapiens, UniProt P49674) | competitive binding panel | – | baseline: vehicle | 100 |
| AXL (Homo sapiens, UniProt P30530) | competitive binding panel | – | baseline: vehicle | 93 |
| PRKD3 (Homo sapiens, UniProt O94806) | competitive binding panel | – | baseline: vehicle | 100 |
| Aurora kinase C (AURKC, Homo sapiens, UniProt Q9UQB9) | competitive binding panel | – | baseline: vehicle | 74 |

For quick reference, copied from above (series 3):
| Structure (SMILES) | remaining activity |
| --- | --- |
| COC(=O)Nc1nc2ccc(SC(C)C)cc2[nH]1 | 100% |
| O=C1C(C2=C3c4ccccc4NC3/C(=C\c3ccc(O)cc3)C2=O)=C2C(=Nc3ccccc32)/C1=C\c1ccc(O)cc1 (stereo not drawn) | 83.8% |
| O=c1cc[nH]c(=O)[nH]1 | 91.6% |
| C=C[C@](C)(O)CC[C@@H]1[C@@]2(C)CCCC(C)(C)[C@@H]2CC[C@@]1(C)O | 94.8% |
| O=C(CCCN1CCC(O)(c2cccc(C(F)(F)F)c2)CC1)c1ccc(F)cc1 | 103% |
| CC(=O)OCC(=O)[C@@]1(OC(C)=O)[C@@H](C)C[C@H]2[C@@H]3C[C@H](F)C4=CC(=O)C=C[C@]4(C)[C@@]3(F)[C@@H](O)C[C@@]21C | 103% |
| CCCCOC(=O)c1ccc(O)cc1 | 109% |
| C[C@@H]1CN(CC(=O)Nc2ccc3c(c2)Cc2cccc(-c4cc(=O)cc(N5CCOCC5)o4)c2S3)C[C@H](C)O1 | 92.5% |
